Published values pooled from the literature.
Lines come from different studies, so protocols differ. Values joined by “and” are separate records of one study, mostly repeats; a detail may differ.
Target: Phosphorylase b kinase gamma catalytic chain, skeletal muscle/heart isoform (PHKG1, Homo sapiens, UniProt Q16816)

SMILES | test | conditions | scale | quantity | value
COc1cc(Nc2nc(C)cc(-c3cnn4nc(OC)ccc34)n2)cc(C(F)(F)F)c1 | inhibitor | 1 µM | relative to: control | remaining activity | 85%
Nc1ncc2c(n1)-c1c([nH]c3ccc(C4=CCOCC4)cc13)CCC2 | binding, competition with immobilised ligand | 1 µM | – | remaining binding | 66%
C=CC(=O)N1CCCC(n2c(=O)c3ncccc3n(Cc3ccc(Oc4ccccc4)cc3)c2=O)C1 (centres unmarked) | cell-free assay, competition with immobilised ligand | 1 µM | – | remaining binding | 76%
CNC(=O)C[C@H](Cc1ccc(C#N)cc1)NC(=O)c1cc(-c2ccc(CN[C@H](C)c3ccc(C)cc3)o2)ccc1Cl | enzyme activity, inhibitor | 1 µM | – | activity vs control | 81%
Nc1ncc(-c2cc(-c3cnn(CC(F)(F)F)c3)ncc2F)nc1C(=O)NC1CNCC(F)C1 (centres unmarked) | enzyme activity | 1 µM | relative to: DMSO control | remaining activity | 82.4%
C=CC(=O)N1Cc2nc(-c3cc(-c4cc(Cl)cnc4Cl)c(F)cc3F)n(-c3ccncn3)c2C1 | cell-free assay, inhibitor | 1 µM | – | inhibition | 0.4%
CCn1cc(C(=O)O)c(=O)c2c(N)c(F)c(NC3CCCCC3)cc21 | kinase activity | 0.1 µM, together with: ATP at Km | – | inhibition | -4.2%
O=C(Cc1ccc(OCc2ccccc2)cc1)NC1(C(=O)O)CCN(C(=O)c2ccc(-c3cccc(Cl)c3)cc2)CC1 | enzyme activity, inhibitor | 10 µM | – | activity vs control | 127%
CCN1CCN(Cc2ccc(C(=O)Nc3ccc(C)c(NCc4cnc5[nH]ccc5c4OC)c3)cc2C(F)(F)F)CC1 | binding, competition with immobilised ligand | 1 µM | – | remaining binding | 100%
Cc1cnc2nc1Nc1cccc(c1)COC/C=C/COCc1cc(ccc1OCCN1CCOCC1)N2 | binding | 0.1 µM | – | remaining binding | 100%
C=CC(=O)Nc1cccc(-c2cnc3[nH]cc(C(=O)NC(C)(C)C)c3n2)c1 | kinase activity | 0.1 µM | – | inhibition | 0% and -6%
CN1CC[C@@H](COc2cnc(C#N)cc2-c2ccn3nc(NC(=O)C4CC4)cc3c2)C1 | enzyme activity, inhibitor | 1 µM | – | inhibition | 6%
Cc1cccc(O[C@H]2CCC[C@@H](C(C)CNCc3ccncc3)C2)c1 (relative stereo) | enzyme activity, inhibitor | 1 µM | – | inhibition | 6%
NC(=O)C[C@H]1CCc2sc3ncnc(O[C@H]4CC[C@H](N5CCOCC5)CC4)c3c21 | enzyme activity, inhibitor | 10 µM | – | inhibition | 17%

Excerpt of the above:
SMILES | test | conditions | scale | quantity | value
CN1CC[C@@H](COc2cnc(C#N)cc2-c2ccn3nc(NC(=O)C4CC4)cc3c2)C1 | enzyme activity, inhibitor | 1 µM | – | inhibition | 6%
